Results gathered from unrelated publications.
Several values in a cell are separate wells, animals, samples, runs or records. ± marks the error that the study gave.

Substance	assay	system	setting	scale	quantity	result
TWPKHFDKHTFYSILKLGKH-OH (C-acid)	in situ brain perfusion	peptide, male C57BL/6J mouse, right brain hemisphere	5 min, 1.15 mL/min perfusion, 1 min wash	baseline: input	brain uptake	0.22 ± 0.052%
CC(=O)N[C@@H](Cc1ccccc1)C(=O)N[C@H]1CCCNC(=O)[C@H](CCCNC(=N)N)NC(=O)[C@H](Cc2c[nH]c3ccccc23)NC(=O)[C@@H](CC2CCCCC2)NC(=O)[C@@H]2CCCN2C1=O		C57BL/6J mouse, plasma	intravenous, 1 mg/kg single dose		Vss	0.0029 L
C=CC(=O)N1CCC([C@@H]2CCNc3c(C(N)=O)c(-c4ccc(Oc5ccccc5)cc4)nn32)CC1		Chinese patients, plasma	oral, 320 mg once daily, week 2 day 1, steady state		AUC(0-8h)	1150 ng·h/mL
Cn1c(-c2ccc(C(N)=O)cc2F)nnc1C(C)(C)Oc1c(F)cc(Cl)cc1F		young non-Japanese adults, plasma	oral, 20 mg single dose, day 1, high-dose multiple-dose study		half-life median	15.4 h
C[C@@H]1CCC[C@H](n2cnc(-c3cc(Cl)ccc3-n3cc(Cl)nn3)cc2=O)c2cc(ccn2)-c2c(cnn2C(F)F)NC1=O		human, plasma	oral, 60 mg, single dose, fasted, healthy volunteers		AUC(0-inf)	4100 ng·h/mL
CNCc1ccc(-c2[nH]c3cc(F)cc4c3c2CCNC4=O)cc1		human patients, plasma	oral, 160 mg once daily, day 1, single dose, arithmetic mean		Cmax	261 ng/mL
CCCOc1ccc([C@H]2CNC(=O)N2c2ccc3[nH]cnc3c2)cc1		human volunteers fasted, plasma	oral tablet, 1800 mg single dose, day 1, geometric mean		effective half-life	2.28 h
Nc1nc2c(nc(Sc3ccc(Cl)cc3)n2[C@@H]2O[C@@H]3CO[P@@](=O)(S)O[C@H]3[C@H]2O)c(=O)[nH]1	eating, drinking, motor activity	rat	intrathecal, dose not given	baseline: control	behavioural abnormalities	no effect
O=C(Cc1cccc(OC(F)(F)F)c1)Nc1ccc(CCCCc2nnc(NC(=O)Cc3ccccn3)s2)nn1		human	oral, 600 mg twice daily, fed, steady state, cycle 1 day 15, median		Cmin	348 ng/mL
CCN1CC(=O)N[C@@H](CC(C)C)C(=O)N(C)[C@@H](C)C(=O)N[C@@H](CC(C)C)C(=O)N2CCC[C@@H]2C(=O)N(CC2CCOCC2)CC(=O)N[C@@H](CC(C)C)C(=O)N(C)[C@@H](C)C(=O)N[C@@H](Cc2ccccc2)C(=O)N2CCC[C@@H]2C1=O		mouse	with: 1-aminobenzotriazole pretreatment		oral bioavailability	5%
CC(C)[C@H](NC(=O)[C@@H]1CCCN1C(=O)[C@H](CCCNC(=N)N)NC(=O)[C@H](CS)NC(=O)[C@H](Cc1c[nH]c2ccccc12)NC(=O)[C@H](CCCNC(=N)N)NC(=O)[C@@H](Cc1ccccc1)NC(=O)[C@H](Cc1c[nH]cn1)NC(=O)[C@H](CCC(=O)O)NC(=O)[C@H](CS)NC(=O)[C@H](CS)NC(=O)[C@H](CCCCN)NC(=O)[C@@H]1CC(=O)N[C@@H](CCCNC(=N)N)C(=O)N[C@@H]([C@@H](C)O)C(=O)N[C@@H](CC(=O)O)C(=O)N[C@H](Cc2ccc(O)cc2)C(=O)N1)C(N)=O [technetium-99m labelled]		C57 mouse, female, B16/F1 melanoma, skin	intravenous, 2 h, with: NDP-MSH 10 µg co-injected		tissue uptake	1.21 ± 0.64 %ID/g
Cc1cc(Nc2cc3ncccc3c(N[C@@H]3C[C@H]4CC[C@@H](C3)N4CCC#N)n2)n[nH]1		beagle dog, male, plasma	oral, 10 mg/kg/day, last day of 13 weeks		Cmax	6.52 ng/mL
N=C(N)c1ccc(CNC(=O)[C@@H]2CCN2C(=O)[C@H](NCC(=O)O)C2CCCCC2)cc1		Wistar rats male, plasma	intravenous, 0.001 mg/kg, 15 min, 10 min after TF		plasma concentration	< 2.9 ng/mL
CC[C@@H]1CN(C(=O)NCC(F)(F)F)C[C@@H]1c1cnc2cnc3[nH]ccc3n12		human, mild renal impairment, urine and plasma	oral, 15 mg single dose, extended release, fasted, arithmetic mean		renal clearance	57 mL/min
C[C@]12CC[C@@H]3c4ccc(O)cc4CC[C@H]3[C@@H]1C[C@@H](O)[C@@H]2O	GC-MS	breast cancer women on NSAI, serum	vaginal, 0.03 mg, 2 h, day 0		mean serum concentration	0.0727 ng/mL
O=C(CCCCCCC(=O)Nc1ccccc1)NO		patients, serum	oral, 600 mg, cycle 1, with: flavopiridol		AUC(0-7 h)	9.35 µM·h
O=C(O)C(F)(F)c1cc(F)ccc1Nc1c(Cl)cc(F)cc1Cl		human liver microsomes	30 min, with: NADPH		remaining compound	107 ± 3.7%
O=C1N=C(N2CCOCC2)CN1c1ccc(Cl)cc1		female beagle dog, plasma	oral, 30 mg/kg, fasted		Vd/F	0.646 L/kg
Cc1cnc(N2CC3(CCOCC3)C2)c(C(=O)Nc2ccc(C(=O)N3CCc4cc(C(=O)Nc5c(C)cccc5F)sc4-c4ccccc43)cc2)c1		human, plasma	inhaled nebulised, 5 mg twice daily repeated		effective half-life	12 to 24 h
liraglutide	equilibrium dialysis	human plasma 10% diluted	10 nM, 4 to 5 h, pH 7.4, 37 °C, inner-outer ratio 50:1		plasma protein binding	99.2%
N[C@@H](CC(=O)O)Cn1nnc(-c2ccc(Oc3ncc(Cl)cc3F)cc2)n1		male beagle dog, blood	oral, 3 mg/kg daily, 4 days after last dose		concentration	~30 ng/mL
des-acyl ghrelin (human)		mouse, Ghsr knockout, cerebellum	intravenous, 10 min		brain/serum ratio	9.51 µL/g
CCCC[C@@H]1NC(=O)[C@@H](NC(=O)[C@H](CCC(=O)O)NC(=O)CNC(=O)CN2CCN(CC(=O)O)CCN(CC(=O)O)CCN(CC(=O)O)CC2)CCCCNC(=O)C[C@@H](C(N)=O)NC(=O)[C@H](C(C)C)NC(=O)[C@@H]2CCCN2C(=O)[C@H](CCCNC(=N)N)NC(=O)CNC(=O)[C@H](Cc2c[nH]c3ccccc23)NC(=O)[C@H](CCCNC(=N)N)NC(=O)[C@@H](Cc2ccccc2)NC(=O)[C@H](Cc2c[nH]cn2)NC(=O)[C@H](CCC(=O)O)NC1=O [indium-111 labelled]		C57 mice, B16/F10 lung metastatic melanoma, blood	intravenous, 0.037 MBq, 24 h		tissue uptake	0.03 ± 0.03 %ID/g
CCCC[C@H](NC(C)=O)C(=O)N[C@H]1CCC(=O)NC[C@@H](C(=O)N[C@@H](Cc2c[nH]c3ccccc23)C(N)=O)NC(=O)[C@H](CCCNC(=N)N)NC(=O)[C@@H](Cc2ccccc2)NC(=O)[C@H](Cc2c[nH]cn2)NC1=O		beagle dog, male, plasma	subcutaneous, 8.0 mg/kg daily, day 14		Cmax	359 ng/mL

Substance	assay	system	setting	scale	quantity	result
C[C@@H](Cn1ccc(-c2ccc(C#N)c(Cl)c2)n1)NC(=O)c1cc([C@@H](C)O)[nH]n1		human	oral, 600 mg twice daily, with food		effective half-life	5.08 h
Nc1cc(F)ccc1NC(=O)c1ccc(CNC(=O)/C=C/c2cccnc2)cc1		Japanese patients, urine	oral, 30 mg, cycle 1 day 1, arithmetic mean		renal clearance	31.3 mL/min
C=CC(N)CCC(=O)O (stereo not drawn)		male Sprague-Dawley rat, plasma	oral, 10 mg/kg, formulation 8, with: infant formula 1500 mg/kg		clearance	9.47 ± 0.3 mL/min/kg
CC1=C2C[C@H]3[C@@H](CC[C@@H]4C[C@H](NS(C)(=O)=O)CC[C@@]43C)[C@@H]2CC[C@@]2(C1)O[C@@H]1C[C@H](C)CN[C@H]1[C@H]2C		patients, plasma	oral, 180 mg single, day -7, cycle 1		AUC(0-24)	1680 ng·h/mL
CC(C)NC[C@@H](C(=O)N1CCN(c2ncnc3c2[C@H](C)C[C@H]3O)CC1)c1ccc(Cl)cc1		human, Severe hepatic function, plasma	oral, 100 mg single dose, NCI classification, geometric mean		apparent clearance	106 L/h
CC(=O)N1CCC[C@H]1C(=O)N[C@@H](CCCNC(=N)N)C(=O)N[C@H](C(=O)N[C@@H](CCCNC(=N)N)C(=O)N[C@H](C(=O)N[C@@H](CCCNC(=N)N)C(=O)N[C@H](C(=O)N[C@@H](CC(=O)O)C(=O)N1CCC[C@H]1C(=O)N[C@@H](CCCNC(=N)N)C(=O)N[C@H](C(=O)N[C@@H](CC(=O)O)C(=O)N[C@H](C(=O)N[C@@H](CCCNC(=N)N)C(=O)N[C@H](C(=O)N[C@@H](CC(=O)O)C(=O)N1CCC[C@H]1C(N)=O)C(C)C)C(C)C)C(C)C)C(C)C)C(C)C)C(C)C	rotational rheometry	2% w/v aqueous solution	shear rate range 1-1000 s^-1		viscosity	3580 ± 86.1 Pa·s
COC(=O)c1ccc2c(c1)NC(=O)/C2=C(\Nc1ccc(N(C)C(=O)CN2CCN(C)CC2)cc1)c1ccccc1		human, hepatic impairment Child-Pugh B, urine and plasma	oral, 100 mg single dose, geometric mean		renal clearance (0-72 h)	17.6 mL/min
Cc1cc(Nc2ncc(Cl)c(Nc3ccccc3S(=O)(=O)C(C)C)n2)c(OC(C)C)cc1C1CCNCC1		human, plasma	oral, 450 mg/day with food, steady state after dose 9		Css,min total	779 nM and 800 nM and 790 nM and 935 nM and 900 nM and 580 nM and 795 nM
O=C(O)[C@H](c1ccccc1Cl)N1CCc2sccc2C1	HPLC-MS/MS	feline EDTA plasma	6 h, -80 °C, storage stability		deviation from nominal	-7%
COc1cccc(N2CCN(C3=Nc4c(F)cccc4[C@H](CC(=O)O)N3c3cc(C(F)(F)F)ccc3OC)CC2)c1	UHPLC-MS/MS	healthy women, plasma	intravenous infusion, 960 mg single dose, 60 min infusion, HPβCD formulation		volume of distribution	79 ± 42.4 L
O=C(c1cccnc1-c1ccncc1)N1CCC(O)(Cc2ccccc2)CC1		healthy human, urine	oral, 100 mg once daily, day 1, arithmetic mean		renal clearance	3.67 mL/min
CNC(=O)c1cc(C(=O)NC)cc(-c2ccc(O[C@H]3O[C@H](CO)[C@@H](O)[C@H](O)[C@@H]3O)cc2)c1		mouse, urine	oral, urine level above biofilm IC50		effective oral dose	100 mg/kg
CNC(=O)c1cc(Oc2ccc(NC(=O)Nc3ccc(Cl)c(C(F)(F)F)c3)cc2)ccn1		nude mouse, MHCC97H tumour xenograft, subcutaneous tumour	intratumoral, ETS-1 siRNA		half-life	30.8 ± 1.06 h
Cc1nc(Nc2ncc(C(=O)Nc3c(C)cccc3Cl)s2)cc(N2CCN(CCO)CC2)n1		C57BL/6 mouse, male, gall bladder	oral, 10 mg/kg, 5 min, undetectable		concentration	< 10 ng/mL
Cc1cc(C)c(C#N)c(SCC(=O)c2ccc(F)cc2)n1	metabolic stability	human, liver microsomes	0.5 µM, pH 7.4		microsomal CLint	479 µL/min/mg
COC(=O)c1ccc2c(c1)NC(=O)/C2=C(\Nc1ccc(N(C)C(=O)CN2CCN(C)CC2)cc1)c1ccccc1		human, plasma	oral, 200 mg twice daily		AUC(tau) at steady state	6170 ng·h/mL
CC(C)=CCC[C@](C)(O[C@@H]1O[C@H](CO)[C@@H](O)[C@H](O)[C@H]1O)[C@H]1CC[C@]2(C)[C@@H]1[C@H](O)C[C@@H]1[C@@]3(C)CC[C@H](O)C(C)(C)[C@@H]3[C@@H](O[C@@H]3O[C@H](CO)[C@@H](O)[C@H](O)[C@H]3O)C[C@]12C		Sprague Dawley rat, male, plasma	oral, 25 mg/kg, in frozen ginseng extract		CL/F	318 ± 130 mL/min/kg
CC1(C)Oc2cc3oc(=O)ccc3cc2C[C@@H]1O		male CD-1 mouse, plasma	oral gavage, 80 mg/kg daily, 4 weeks		plasma T.Bili level	0.23 ± 0.05 mg/dL
Cc1c(O)cc2c(c1C)O[C@](C)(CCC[C@H](C)CCC[C@H](C)CCCC(C)C)CC2	HPLC	female Nu/Nu BALB/c mouse, serum	oral diet, 500 mg/kg diet, at euthanasia		serum concentration	1300 ± 200 nM
COc1ccc(/C=C\c2cc(OC)c(OC)c(OC)c2)cc1OP(=O)(O)O		Sprague-Dawley rat male, plasma	intravenous, 28 mg/kg		clearance	28.8 ± 2 mL/min/kg
COc1cc(/C=C/C(=O)CC(=O)/C=C/c2ccc(O)c(OC)c2)ccc1O	I-125 label	C57BL/6J mouse, olfactory lobes	intranasal vs intraperitoneal, 10 µg/mouse IN, 100 µg/mouse IP, 4 h	baseline: intranasal over intraperitoneal	brain uptake ratio	5.19
CC[C@H](C)[C@@H]1NC(=O)[C@H](Cc2ccc(O)cc2)NC(=O)[C@@H](N)CSSC[C@@H](C(=O)N2CCC[C@H]2C(=O)N[C@@H](CC(C)C)C(=O)NCC(N)=O)NC(=O)[C@H](CC(N)=O)NC(=O)[C@H](CCC(N)=O)NC1=O	microdialysis, radioimmunoassay	C57BL/6J male mice, wild type, hippocampus extracellular fluid	intranasal, 12 µg, total area from zero		AUC(0-t)	173 ± 114 pg·30 min/sample
CNC(=O)c1ccc(-c2cnc3ncc(Cc4ccc5ncccc5c4)n3n2)cc1F		human, moderate hepatic impairment (Child-Pugh B), plasma	oral, 200 mg single dose		Tmax (median)	1.25 h
Cc1nc2cccc(OCC(C)(C)C(=O)NC(C)C)c2c(N)c1C(=O)O		male Sprague-Dawley rat, plasma	oral gavage, 30 mg/kg single dose		dose-normalised Cmax	1.29 ng/mL/mg/kg

Some of these lines once more:
Substance	assay	system	setting	scale	quantity	result
Cc1cc(C)c(C#N)c(SCC(=O)c2ccc(F)cc2)n1	metabolic stability	human, liver microsomes	0.5 µM, pH 7.4		microsomal CLint	479 µL/min/mg
N=C(N)c1ccc(CNC(=O)[C@@H]2CCN2C(=O)[C@H](NCC(=O)O)C2CCCCC2)cc1		Wistar rats male, plasma	intravenous, 0.001 mg/kg, 15 min, 10 min after TF		plasma concentration	< 2.9 ng/mL
Cc1nc(Nc2ncc(C(=O)Nc3c(C)cccc3Cl)s2)cc(N2CCN(CCO)CC2)n1		C57BL/6 mouse, male, gall bladder	oral, 10 mg/kg, 5 min, undetectable		concentration	< 10 ng/mL
O=C(O)[C@H](c1ccccc1Cl)N1CCc2sccc2C1	HPLC-MS/MS	feline EDTA plasma	6 h, -80 °C, storage stability		deviation from nominal	-7%
TWPKHFDKHTFYSILKLGKH-OH (C-acid)	in situ brain perfusion	peptide, male C57BL/6J mouse, right brain hemisphere	5 min, 1.15 mL/min perfusion, 1 min wash	baseline: input	brain uptake	0.22 ± 0.052%
CC[C@H](C)[C@@H]1NC(=O)[C@H](Cc2ccc(O)cc2)NC(=O)[C@@H](N)CSSC[C@@H](C(=O)N2CCC[C@H]2C(=O)N[C@@H](CC(C)C)C(=O)NCC(N)=O)NC(=O)[C@H](CC(N)=O)NC(=O)[C@H](CCC(N)=O)NC1=O	microdialysis, radioimmunoassay	C57BL/6J male mice, wild type, hippocampus extracellular fluid	intranasal, 12 µg, total area from zero		AUC(0-t)	173 ± 114 pg·30 min/sample
